Published values from different studies.
Each numbered part is a random draw from the data of one study; scales do not carry over between parts. Changes are numbered by the printed parent chain.

Sample 1 — method: universal PBM; molecule type: double-stranded DNA, one strand shown; sample: in vitro; tested at: 600 nM; reading: higher = stronger binding
Target: Sal-like protein 4, full length isoform A (SALL4, Homo sapiens, UniProt Q9UJQ4, residues 1-1053)
UniProt Q9UJQ4, sequence (whole entry, looked up): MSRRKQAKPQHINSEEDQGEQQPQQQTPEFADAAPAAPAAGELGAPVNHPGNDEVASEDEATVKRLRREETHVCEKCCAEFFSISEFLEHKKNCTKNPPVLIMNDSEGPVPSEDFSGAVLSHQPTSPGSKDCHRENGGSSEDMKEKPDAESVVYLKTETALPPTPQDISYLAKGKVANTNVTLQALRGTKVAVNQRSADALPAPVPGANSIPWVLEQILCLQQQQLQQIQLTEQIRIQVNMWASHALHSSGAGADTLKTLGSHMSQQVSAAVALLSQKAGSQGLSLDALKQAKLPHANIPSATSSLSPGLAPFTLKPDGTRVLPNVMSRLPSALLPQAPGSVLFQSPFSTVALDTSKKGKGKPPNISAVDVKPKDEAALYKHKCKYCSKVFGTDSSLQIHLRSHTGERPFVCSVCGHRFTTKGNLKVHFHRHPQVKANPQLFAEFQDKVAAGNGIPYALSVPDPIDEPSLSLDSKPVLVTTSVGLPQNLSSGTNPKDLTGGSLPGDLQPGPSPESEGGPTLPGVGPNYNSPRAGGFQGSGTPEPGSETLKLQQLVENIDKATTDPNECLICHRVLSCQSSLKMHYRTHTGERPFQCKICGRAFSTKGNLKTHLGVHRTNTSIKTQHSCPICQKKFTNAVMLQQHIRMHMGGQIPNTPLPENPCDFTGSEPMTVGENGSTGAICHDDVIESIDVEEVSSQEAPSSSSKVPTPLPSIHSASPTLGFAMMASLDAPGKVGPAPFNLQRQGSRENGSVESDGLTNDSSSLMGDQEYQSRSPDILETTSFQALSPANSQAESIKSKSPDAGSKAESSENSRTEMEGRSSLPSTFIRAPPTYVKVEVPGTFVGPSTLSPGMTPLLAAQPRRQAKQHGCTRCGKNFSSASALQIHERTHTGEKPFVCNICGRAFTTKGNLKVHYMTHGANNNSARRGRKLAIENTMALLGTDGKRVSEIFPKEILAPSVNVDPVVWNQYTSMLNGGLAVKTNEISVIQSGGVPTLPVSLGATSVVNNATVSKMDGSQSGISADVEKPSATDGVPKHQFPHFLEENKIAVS
Setting: 8-mer, flanks averaged, mean of replicates
Sequence	E-score
TCAAATCA	0.237
ATAAACGG	0.25
ATTTAGAC	0.201
CAGAATAC	0.202
CTGGCTGA	-0.262
ATGGACAC	0.0371
GGAAGACC	-0.307
ATCAGAGA	0.0655

Sample 2 — target: CCND3, cyclin fold, Cln2 fusion (human); method: yeast growth competition, sequencing; sample: yeast; setting: weak parent motif; relative to: not given; reading: higher = stronger binding
Starting sequence: WEE1 docking peptide (human); HKTFRKLRLFDTP
Variant	normalised enrichment score
D11P	0.115
T12N	0.288
T12C	0.136
T12W	0.217

Sample 3 — method: protein binding microarray; molecule type: double-stranded DNA, one strand shown; sample: in vitro; tested at: not given; relative to: not given; reading: higher = stronger binding
Target: Histone acetyltransferase KAT6A, winged helix 2, GST fusion (KAT6A, Homo sapiens, UniProt Q92794, residues 85-181)
Setting: 8-mer, flanks averaged, mean of 2 arrays, mostly near background
Residues (chain): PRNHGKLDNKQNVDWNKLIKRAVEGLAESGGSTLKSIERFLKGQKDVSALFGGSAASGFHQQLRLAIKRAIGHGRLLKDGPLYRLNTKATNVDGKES
Sequence	E-score
CTACTCAC	-0.0921
GCAATACC	-0.0653
AGTGAACC	-0.0441
AAGATTTA	0.087
CATCCATA	-0.0449
AACCTGGT	0.0745

Further values, each from its own experiment
Molecule	target	test	test system	setting	scale	measurement	value
PhoQ, residues 284 288 289 292 302 303 SVHLDV	PhoP, residues 12 14 15 18 19 STHWV (Escherichia coli, UniProt P23836)	Sort-seq, refers to: YFP reporter	E. coli	PhoQ-PhoP variant library, added: 10 µM Mg2+	relative to: high Mg2+ state, higher = stronger signaling	fold induction	0.786

A few entries again (sample 3):
Sequence	E-score
AAGATTTA	0.087
